Experimental data pooled from the literature.
Parts stem from different laboratories: compare values within a part only.
Sequence of UniProt Q96PY6 (whole entry, looked up): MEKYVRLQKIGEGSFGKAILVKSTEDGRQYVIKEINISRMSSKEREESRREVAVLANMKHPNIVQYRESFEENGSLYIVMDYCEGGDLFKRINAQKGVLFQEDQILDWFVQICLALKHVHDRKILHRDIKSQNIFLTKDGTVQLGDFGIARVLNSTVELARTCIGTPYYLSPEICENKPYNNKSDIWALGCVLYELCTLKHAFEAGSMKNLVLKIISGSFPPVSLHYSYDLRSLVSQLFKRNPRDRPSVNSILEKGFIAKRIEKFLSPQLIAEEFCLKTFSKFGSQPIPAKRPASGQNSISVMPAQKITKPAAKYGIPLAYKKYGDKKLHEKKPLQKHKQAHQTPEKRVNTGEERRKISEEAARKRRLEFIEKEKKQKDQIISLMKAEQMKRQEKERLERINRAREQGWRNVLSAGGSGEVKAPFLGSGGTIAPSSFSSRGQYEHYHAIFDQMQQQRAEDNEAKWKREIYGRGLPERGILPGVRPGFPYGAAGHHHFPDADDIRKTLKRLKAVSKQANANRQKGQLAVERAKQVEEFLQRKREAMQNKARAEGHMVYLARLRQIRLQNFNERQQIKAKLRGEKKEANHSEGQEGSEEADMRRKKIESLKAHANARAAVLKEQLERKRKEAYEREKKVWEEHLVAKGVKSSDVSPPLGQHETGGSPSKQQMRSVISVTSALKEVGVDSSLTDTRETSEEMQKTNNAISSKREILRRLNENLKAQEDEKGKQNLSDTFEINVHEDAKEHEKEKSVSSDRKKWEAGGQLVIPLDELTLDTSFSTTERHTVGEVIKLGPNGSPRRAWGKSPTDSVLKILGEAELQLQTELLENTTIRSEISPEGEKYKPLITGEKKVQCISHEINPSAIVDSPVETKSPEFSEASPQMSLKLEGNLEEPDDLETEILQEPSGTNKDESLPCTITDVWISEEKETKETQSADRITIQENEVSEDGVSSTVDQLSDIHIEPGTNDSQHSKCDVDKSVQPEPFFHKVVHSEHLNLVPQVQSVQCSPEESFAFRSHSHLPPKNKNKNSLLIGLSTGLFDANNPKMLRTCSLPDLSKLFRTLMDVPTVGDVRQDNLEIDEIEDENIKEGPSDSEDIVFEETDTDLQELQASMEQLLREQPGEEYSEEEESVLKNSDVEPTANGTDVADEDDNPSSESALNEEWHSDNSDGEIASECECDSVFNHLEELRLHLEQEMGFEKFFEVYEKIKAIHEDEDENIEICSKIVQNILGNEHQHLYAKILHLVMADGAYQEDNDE
Sequence of UniProt Q8N5S9 (whole entry, looked up): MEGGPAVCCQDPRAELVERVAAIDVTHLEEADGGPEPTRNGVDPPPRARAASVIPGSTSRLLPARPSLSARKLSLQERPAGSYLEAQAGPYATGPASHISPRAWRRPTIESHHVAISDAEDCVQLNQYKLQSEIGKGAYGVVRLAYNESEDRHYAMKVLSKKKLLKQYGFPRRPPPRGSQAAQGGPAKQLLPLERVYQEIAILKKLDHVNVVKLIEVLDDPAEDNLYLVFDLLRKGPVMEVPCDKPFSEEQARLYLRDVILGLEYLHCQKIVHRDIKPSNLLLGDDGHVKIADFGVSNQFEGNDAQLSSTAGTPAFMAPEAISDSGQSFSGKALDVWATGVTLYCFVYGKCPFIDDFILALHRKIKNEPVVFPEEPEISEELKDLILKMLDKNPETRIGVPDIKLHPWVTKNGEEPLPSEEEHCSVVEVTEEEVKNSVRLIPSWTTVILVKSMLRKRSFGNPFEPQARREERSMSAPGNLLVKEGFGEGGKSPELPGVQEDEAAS
Sequence of UniProt Q8TD08 (whole entry, looked up): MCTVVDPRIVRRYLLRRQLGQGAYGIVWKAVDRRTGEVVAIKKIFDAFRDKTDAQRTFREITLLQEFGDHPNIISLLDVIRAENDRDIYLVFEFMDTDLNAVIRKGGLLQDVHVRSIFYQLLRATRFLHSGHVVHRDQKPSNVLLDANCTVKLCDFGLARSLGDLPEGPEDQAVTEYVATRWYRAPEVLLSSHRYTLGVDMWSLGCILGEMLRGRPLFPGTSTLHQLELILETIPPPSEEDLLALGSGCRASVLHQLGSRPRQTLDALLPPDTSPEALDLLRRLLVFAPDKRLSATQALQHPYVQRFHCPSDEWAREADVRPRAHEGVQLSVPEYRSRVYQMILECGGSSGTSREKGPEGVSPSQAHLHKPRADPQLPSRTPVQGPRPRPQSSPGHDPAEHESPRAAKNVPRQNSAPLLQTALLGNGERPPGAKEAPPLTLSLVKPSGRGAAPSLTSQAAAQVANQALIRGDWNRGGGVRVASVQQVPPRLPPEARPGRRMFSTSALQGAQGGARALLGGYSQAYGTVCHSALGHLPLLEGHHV

Sample 1
Cell line: mouse MPNST tumor cells
Method: high-content nuclear imaging
Refers to: cell number
Tested at: 10 µM
Time: 12 h
Setting: mean of 2 replicates
Baseline: plate mean
Reading: higher = more cells
Quantity: nuclei count
COc1ccc(-c2cnc(NCc3cccc(OC)c3)n2C)cc1: 0.504 z-score
CC(=O)Nc1c(I)c(C(=O)N[C@H]2C(O)O[C@H](CO)[C@@H](O)[C@@H]2O)c(I)c(N(C)C(C)=O)c1I (stereo partly drawn): 1.4 z-score
Cc1[nH]cnc1CN1CCc2c(c3ccccc3n2C)C1=O: 1.13 z-score
CC(C)(C)NC(=O)[C@H]1CC[C@H]2[C@@H]3CC[C@H]4NC(=O)C=C[C@]4(C)[C@H]3CC[C@]12C: -0.487 z-score

Sample 2
SMILES: Cc1nc(Nc2ncc(C(=O)Nc3c(C)cccc3Cl)s2)cc(N2CCN(CCO)CC2)n1
Mode: inhibitor
Tested at: 10 µM
Quantity: inhibition
TIE1 (Homo sapiens, UniProt P35590): < 50%
MAPK15 (Homo sapiens, UniProt Q8TD08): < 50%
MARK4 (Homo sapiens, UniProt Q96L34): < 50%
PIM3 (Homo sapiens, UniProt Q86V86): < 50%
LATS2 (Homo sapiens, UniProt Q9NRM7): < 50%

Sample 3
Cell line: A-375
Tested at: 100 µM
Time: 36 h
Quantity: viability
O=C(O)C1=CO[C@@H](O[C@@H]2O[C@H](CO)[C@@H](O)[C@H](O)[C@H]2O)[C@@H]2C(CO)=CC[C@H]12: 95.4%
N=c1ccn2c(n1)O[C@H]1[C@H](O)[C@@H](CO)O[C@H]12: 45.2%
CC(=O)[C@@]1(O)CC[C@H]2[C@@H]3CCC4=CC(=O)CC[C@]4(C)[C@H]3CC[C@@]21C: 86.7%
Oc1ncnc2[nH]ncc12: 121%

Sample 4
Host: mouse
Sample: microsomes or S9
Tested at: 2 µM
Time: 0.5 h
Quantity: remaining compound
COc1ccc(Cl)cc1NC(=O)c1cc(S(=O)(=O)N2CCc3ccccc32)cn1C: 6.8%
CC(C)(C)CNCCn1c(=S)[nH]c2c(Cl)nccc21: > 99%
Cc1nn(CC(O)Cn2cnc3c2c(=O)n(C)c(=O)n3C)c(C)c1Br (stereo not drawn): 15.8%
CN(C)CCCOc1ccc(CN2CCC(NC(=O)c3ccco3)CC2)cc1: 50.9%

Sample 5
Target: DNA polymerase theta, ATPase domain (POLQ, Homo sapiens, UniProt O75417)
Sequence of UniProt O75417 (whole entry, unmodified, looked up): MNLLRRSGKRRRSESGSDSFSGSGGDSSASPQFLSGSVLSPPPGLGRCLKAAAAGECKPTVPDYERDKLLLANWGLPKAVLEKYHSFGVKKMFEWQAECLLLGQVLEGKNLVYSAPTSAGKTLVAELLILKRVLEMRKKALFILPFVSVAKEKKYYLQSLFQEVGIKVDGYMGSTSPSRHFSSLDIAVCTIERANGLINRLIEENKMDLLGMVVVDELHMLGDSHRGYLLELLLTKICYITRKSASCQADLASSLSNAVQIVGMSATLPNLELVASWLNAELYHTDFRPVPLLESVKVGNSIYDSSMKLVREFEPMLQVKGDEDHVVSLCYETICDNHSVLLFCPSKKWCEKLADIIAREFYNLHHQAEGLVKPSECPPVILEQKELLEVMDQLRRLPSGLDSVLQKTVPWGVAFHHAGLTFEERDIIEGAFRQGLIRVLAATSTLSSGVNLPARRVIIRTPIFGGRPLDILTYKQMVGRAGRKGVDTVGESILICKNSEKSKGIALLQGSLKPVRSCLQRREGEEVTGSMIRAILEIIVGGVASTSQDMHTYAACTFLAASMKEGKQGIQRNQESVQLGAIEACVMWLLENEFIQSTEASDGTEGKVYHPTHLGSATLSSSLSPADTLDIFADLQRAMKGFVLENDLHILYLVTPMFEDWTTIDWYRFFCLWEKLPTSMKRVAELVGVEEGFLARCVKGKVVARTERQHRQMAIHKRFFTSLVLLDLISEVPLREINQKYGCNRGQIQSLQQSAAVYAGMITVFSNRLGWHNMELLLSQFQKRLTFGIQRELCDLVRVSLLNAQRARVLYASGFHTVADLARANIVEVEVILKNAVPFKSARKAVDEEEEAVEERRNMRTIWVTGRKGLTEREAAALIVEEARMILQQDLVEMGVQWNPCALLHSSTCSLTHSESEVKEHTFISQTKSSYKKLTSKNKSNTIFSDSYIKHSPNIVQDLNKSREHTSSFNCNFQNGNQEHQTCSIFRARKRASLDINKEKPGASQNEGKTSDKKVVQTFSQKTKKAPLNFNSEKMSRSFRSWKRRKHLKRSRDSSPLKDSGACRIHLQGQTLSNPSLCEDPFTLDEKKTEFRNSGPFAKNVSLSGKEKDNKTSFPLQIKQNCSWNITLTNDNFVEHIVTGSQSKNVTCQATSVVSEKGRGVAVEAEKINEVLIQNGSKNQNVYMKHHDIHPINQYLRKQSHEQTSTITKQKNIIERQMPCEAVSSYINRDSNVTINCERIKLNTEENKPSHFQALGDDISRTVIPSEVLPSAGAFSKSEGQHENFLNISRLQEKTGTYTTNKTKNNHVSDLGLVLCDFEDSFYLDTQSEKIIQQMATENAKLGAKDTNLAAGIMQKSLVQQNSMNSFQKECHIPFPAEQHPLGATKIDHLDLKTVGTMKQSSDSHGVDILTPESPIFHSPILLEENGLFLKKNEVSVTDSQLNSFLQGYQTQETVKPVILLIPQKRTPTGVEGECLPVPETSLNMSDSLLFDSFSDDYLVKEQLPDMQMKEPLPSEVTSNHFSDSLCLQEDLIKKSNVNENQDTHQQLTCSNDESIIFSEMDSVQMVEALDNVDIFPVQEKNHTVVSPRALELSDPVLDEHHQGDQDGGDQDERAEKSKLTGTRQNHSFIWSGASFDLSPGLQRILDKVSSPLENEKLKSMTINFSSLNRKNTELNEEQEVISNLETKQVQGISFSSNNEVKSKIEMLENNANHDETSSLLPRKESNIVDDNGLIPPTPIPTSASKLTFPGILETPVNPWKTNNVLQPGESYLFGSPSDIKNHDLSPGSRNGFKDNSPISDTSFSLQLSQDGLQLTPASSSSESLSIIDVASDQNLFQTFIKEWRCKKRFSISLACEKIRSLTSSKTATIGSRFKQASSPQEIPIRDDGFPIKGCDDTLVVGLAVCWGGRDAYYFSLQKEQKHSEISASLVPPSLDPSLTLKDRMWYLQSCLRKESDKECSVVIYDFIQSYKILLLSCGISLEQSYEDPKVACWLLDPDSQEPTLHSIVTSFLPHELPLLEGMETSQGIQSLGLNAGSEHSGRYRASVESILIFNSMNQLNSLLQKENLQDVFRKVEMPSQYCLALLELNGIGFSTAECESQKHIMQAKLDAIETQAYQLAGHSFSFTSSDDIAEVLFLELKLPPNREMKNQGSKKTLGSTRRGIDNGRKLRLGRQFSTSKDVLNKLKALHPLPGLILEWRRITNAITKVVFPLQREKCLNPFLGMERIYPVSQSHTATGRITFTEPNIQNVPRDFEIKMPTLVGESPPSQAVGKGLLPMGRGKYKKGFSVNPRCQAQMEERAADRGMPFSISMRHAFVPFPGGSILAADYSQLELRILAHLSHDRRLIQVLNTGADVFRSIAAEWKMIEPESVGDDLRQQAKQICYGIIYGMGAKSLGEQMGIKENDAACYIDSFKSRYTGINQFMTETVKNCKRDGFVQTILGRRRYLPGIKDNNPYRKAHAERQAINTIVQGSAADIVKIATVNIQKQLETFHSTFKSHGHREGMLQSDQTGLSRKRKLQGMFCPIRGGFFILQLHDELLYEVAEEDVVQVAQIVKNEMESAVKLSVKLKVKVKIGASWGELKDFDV
Effect on: enzyme activity
Mode: inhibitor
Tested at: 77 µM
Baseline: untreated
Quantity: remaining activity
C[C@@H]1O[C@@H]1P(=O)(O)O: 94.2%
CN(C)C(=O)COC(=O)Cc1ccc(OC(=O)c2ccc(NC(=N)N)cc2)cc1: 98.3%
CNC(=O)[C@H]1O[C@@H](n2cnc3c(NCc4cccc(I)c4)nc(Cl)nc32)[C@H](O)[C@@H]1O: 113%
Cc1ccccc1/C=C/C1=NCCN1: 105%
CC1(C)S[C@@H]2[C@H](NC(=O)C(C(=O)O)c3ccccc3)C(=O)N2[C@H]1C(=O)O (stereo partly drawn): 99.8%

Sample 6
SMILES: O=C(Nc1ccc(Oc2ccc(F)cc2)cc1)N1CCc2ncccc2[C@H]1c1ccc(F)cc1
Effect on: cell-free assay
Method: competition with immobilised ligand
Tested at: 1 µM
Quantity: remaining binding
Cyclin-dependent kinase 4, with cyclin D1 (CDK4, Homo sapiens, UniProt P11802): 100%
Tyrosine-protein kinase JAK2, JH1 (JAK2, Homo sapiens, UniProt O60674): 100%
PIK3CG (Homo sapiens, UniProt P48736): 87%
ROS1 (Homo sapiens, UniProt P08922): 76%
Ribosomal protein S6 kinase alpha-5, N-terminal kinase domain (RPS6KA5, Homo sapiens, UniProt O75582): 95%
FYN (Homo sapiens, UniProt P06241): 89%
MAP4K4 (Homo sapiens, UniProt O95819): 100%
CAMKK1 (Homo sapiens, UniProt Q8N5S9): 99%
PRKAA2 (Homo sapiens, UniProt P54646): 51%
FGFR3 (Homo sapiens, UniProt P22607, G697C): 100%
NEK1 (Homo sapiens, UniProt Q96PY6): 100%
RET (Homo sapiens, UniProt P07949): 94%
ACVR1 (Homo sapiens, UniProt Q04771): 96%
PAK4 (Homo sapiens, UniProt O96013): 94%
MINK1 (Homo sapiens, UniProt Q8N4C8): 99%
BTK (Homo sapiens, UniProt Q06187): 93%
Tyrosine-protein kinase ABL1, phosphorylated (ABL1, Homo sapiens, UniProt P00519, T315I): 85%
Tyrosine-protein kinase ABL1, non-phosphorylated (ABL1, Homo sapiens, UniProt P00519, Q252H): 90%
Tyrosine-protein kinase ABL1, phosphorylated (ABL1, Homo sapiens, UniProt P00519, F317L): 86%
NUAK2 (Homo sapiens, UniProt Q9H093): 82%
